# Measurements gathered from unrelated publications.
# A part holds a random share of what one study measured. Changes are numbered by the printed parent chain.

# Set 1 — target: CCNE1, cyclin fold, Cln2 fusion (human); technique: yeast growth competition, sequencing; medium: yeast; setting: strong parent motif; baseline: not given; direction: higher = stronger binding
# Parent: RBL1 docking peptide (human); GSAKRRLFGEDPP
Change,normalised enrichment score
NSAKRRLFGEDPP [G1N],6.44
GSAKSRLFGEDPP [R5S],-0.0853
GEAKRRLFGEDPP [S2E],5.23
GSAKRRLGGEDPP [F8G],0.15
YSAKRRLFGEDPP [G1Y],7.37
GSAKRRLFGEHPP [D11H],4.59
GSAKERLFGEDPP [R5E],-0.0192
GSAKRRLFMEDPP [G9M],6.82
GYAKRRLFGEDPP [S2Y],5
GSAKRRLFGGDPP [E10G],4.4
ISAKRRLFGEDPP [G1I],7.88
GSAKRRLFGEDWP [P12W],6.4
GSAKRRLVGEDPP [F8V],0.465
GSAKRMLFGEDPP [R6M],3.24
GSAKRSLFGEDPP [R6S],2.19
GSAKRRLFGHDPP [E10H],5.56
GSAKRRTFGEDPP [L7T],0.086
GSAKRYLFGEDPP [R6Y],2.63
GSAGRRLFGEDPP [K4G],0.512
GSAKRRLFGEGPP [D11G],5.48
GSAKRRLFGEDLP [P12L],6.34
GSAKRRLFGEDVP [P12V],6.42
GSAKRRLFGNDPP [E10N],5.85
GSAKRRLFGEDNP [P12N],5.87
GSAKRNLFGEDPP [R6N],2.96

# Set 2 — technique: RNA Bind-n-Seq; form: RNA; medium: in vitro; concentration: not given; baseline: input RNA pool; direction: higher = stronger binding
# Target: RING finger protein unkempt homolog, zinc fingers 1-6, GST-SBP tag (UNK, Homo sapiens, UniProt Q9C0B0, residues 30-357)
# Chain of UniProt Q9C0B0 (30-357, looked up): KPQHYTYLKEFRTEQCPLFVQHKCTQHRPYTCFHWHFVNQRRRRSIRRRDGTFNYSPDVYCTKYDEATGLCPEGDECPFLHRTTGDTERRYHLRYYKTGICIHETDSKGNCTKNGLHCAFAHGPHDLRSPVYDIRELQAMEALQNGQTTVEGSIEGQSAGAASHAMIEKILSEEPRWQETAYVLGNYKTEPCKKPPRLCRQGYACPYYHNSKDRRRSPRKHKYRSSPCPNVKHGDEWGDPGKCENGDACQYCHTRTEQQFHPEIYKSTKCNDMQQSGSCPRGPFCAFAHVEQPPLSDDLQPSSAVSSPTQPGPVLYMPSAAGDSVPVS
# Setting: RNA with constant flanks, human and mouse sites, ends assumed
# Shared flanks, not repeated: GGGAGUUCUACAGUCCGACGAUC … CAACAGAGGAUUGAGCAUCA
Sequence,bound/input enrichment
UCAACAGGGGAUGCUGCGCGCCAGGGGGUGUACGAGAACUUCAGGCGGGAACUGGAGAUGAGUACCACCAACAGUGAGAGCCUGGAGGAGGCUGGCUCUGCGCACAGCGAUGAGCAGAGC,0.203 ratio
UGACAAAAUGUGAUGAGAGCUUCUUGAACCGGUAAACUAGUACAGGUCUGAGAAAGACAUAUUAGAAGAAUCAUUAUACUUCCUUGAAUUAUAUUUAUUUUCAUGUUUCUCUAAUGCAAA,0.863 ratio
GAAGUAAAAAGUGUAGAACAGCAAGUUAUCGGCUUCAGUGGUCUGUCAGAUGACAAGAAUUACAAGAAACUGGAGAGGAUUCUAACAAAACAGCUUUUUGAAAUAGACUCUGUAGAUACU,0.321 ratio
GACAACAAAAUUAUAGAAUGCAAAUUUGAGAACAAUAGCUGGGUCUUCAUGAGACAGAGGAUAGACAAAAGUUUCCCAAAUGCCUACAACACAGCCAUGGCUGUGUGCAAUAGCAUCUCG,6.8 ratio
UGCUACCAGACACUGACAGGGAUCAAGUUUGUGGUUCUAGCAGAUCCUAGGCAAGCUGGAAUAGAUUCUCUUCUCCGAAAGAUUUAUGAGAUUUACUCAGACUUUGCCCUCAAGAAUCCA,0.138 ratio
CUGGCCCCUGUACAGGUGUCAUUAAUCUGGUUGUAUAUGGGUUAUAAUAUGUAAUACAAAAAGCUCAUUAAGUAUGGGACUACAUGGAGAGGGAAGACAGUUUCAUUUAUAGCUACUGGG,0.378 ratio
ACGCCAUCUUUAAGGUUCUGAAUGAGAAGAAACUUCAAGAGGUUGAUAGUUUGUGGAAAGAAUUUGAAACUCCAGAGAAAGCAAAUAAAAUAGUAAAGCUAAAACAUUUUGAGAAAUUUC,0.791 ratio
GAUGAGGUCCAGGCUAUUUGCCAACCUGAGGGAAAUUACUGCCCGUCAGCAGAGUUCAUUUAGCAGACUAUGUAGGCAAUGGAACCAAAGUUUUUUACUUUUUUUUUCCUGUUUUUUUUU,0.829 ratio

# Set 3 — technique: universal PBM; form: double-stranded DNA, one strand shown; medium: in vitro; concentration: not given; direction: higher = stronger binding
# Target: Sal-like protein 4, full length isoform B (SALL4, Homo sapiens, UniProt Q9UJQ4-2, residues 1-616)
# Setting: 8-mer, flanks averaged, mean of replicates
Sequence,E-score
CGTAGGCA,-0.121
CGCACTTA,0.0213
CGCGTTCC,-0.238
CGTTCTAC,-0.0833
AGGGTCAG,-0.234
TTGCAAAA,0.231
CAAATTAG,0.164
AAATCTCT,0.17
AGAATCAC,-0.0531
ATGTGAAG,0.262
AACCTCAT,0.175
ATTGGTCC,0.078
CCGTTCCG,-0.235
TCATCCAA,0.139
CCCACCGG,-0.309
AGTGGGAG,-0.145
ACGTATAC,0.191
CTGCTAAC,-0.0411
ACGCCTAC,-0.254
CGGTCGCC,-0.297
CAACATGC,0.0615
CGGTTTGA,-0.127
CCTCGTAG,-0.0423
CCTGCAAA,-0.00557
GCAACAAC,-0.00327

# Set 4 — technique: RNA Bind-n-Seq; form: RNA; medium: in vitro; concentration: 365 nM; baseline: no-protein control; direction: higher = stronger binding
# Target: RNA binding protein fox-1 homolog 2, RRM domain, GST-SBP tag (RBFOX2, Homo sapiens, UniProt O43251-10, residues 100-194)
# Setting: natural RNA segment, single round, ends assumed
# Shared flanks, not repeated: GGGAGUUCUACAGUCCGACGAUC … UGGAAUUCUCGGGUGCCAA
# Residues (chain): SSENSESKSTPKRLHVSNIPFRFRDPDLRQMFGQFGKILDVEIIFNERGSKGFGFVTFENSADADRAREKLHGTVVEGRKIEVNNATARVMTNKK
Sequence,RBNS enrichment (R)
CUAGUAAAAAAUAACCCAGCAGUAAAUAAUAAAGAAAUUACUGAAUGAGAGGAUAAUGAAUCUGAAUCAUAGCAGGAAUUUGCAAUAUUAAUUAUGGUUAGCUAUUUUUC,0.471
CCCUCUGAAGGCCAGGAGCCCGCGGGAGGAGAUCCUGUAGCCACCUGGUCUGUCUCCUCAGGGCAGGGCCCAGCACACUGCCCGGCCAGUCCUCCUACCUCCCGAGUCUG,0.501
GAGAGCAAAAAAGACACCGAUGGGGUUUUCAGCUCCUAACUGGACCCUCUUGCCCAGCCGGCUGCAAGUUUUGUAAGCGCGGACAGACACUGCUGAACCUUUCCUCUGGG,0.288
GAUCCCCUCCAUUUAUUUGUUUAAUUUGGGUGGUGAUUCUGAAAUGAAUACUCUCUAGGAAAUGUGCAAUUUCAUGGUAAUUAUUUUUUAGAAAAGUCAAUUUAAUAAAU,0.689
ACGUAAUUCCUGUUUUCAUGGGUCCUGUAGAUGUUUGAGUCAGGAAGGUAAGGCGGGGAGUGACUGAAUAAACUCUGCCUUUUAAAUUGAGCAUCUGGGCCGGGCAUGGU,6.45
CUUUAAAAGGGCGACAACUGACUCACGAGAUGGCAACCACCUGGAGCCUGUUUGGGGAGACCACCCUGUACCCGUGACUUUCGUUUUUAAUAAUAAUAAUAAUAAUAAUA,0.394
AAAAAGUAAAGAAGAAAGAUAACAUUAGUGUAUUUCUCCUGUGCUUGCCUUCUGAAGUGGCACAAACCUGUGUUUAUAUAUUUAAAAGAUACUCUAGGAUGAUCACUUGU,0.32
AAUGGGGCCAACAGUUCUUCCUGUUCGGUGCAGCGGGUGCUAGUAGGAUGCCCUAGUCCUUGAUGGGGCAGGGUAGGACCUCUGGGGCAGAUGGCCUCCCUGCUCUUCUG,0.683

# For quick reference, copied from above (set 3):
Sequence,E-score
ATTGGTCC,0.078
CCGTTCCG,-0.235
TCATCCAA,0.139
CCCACCGG,-0.309
AGTGGGAG,-0.145
ACGTATAC,0.191
CTGCTAAC,-0.0411
ACGCCTAC,-0.254
CGGTCGCC,-0.297
